Measured values pooled from the literature.
Parts stem from different laboratories: compare values within a part only.

Set 1
Target: Histone acetyltransferase KAT6A, winged helix 1, GST fusion (KAT6A, Homo sapiens, UniProt Q92794, residues 1-85)
Method: protein binding microarray
Molecule type: double-stranded DNA, one strand shown
Medium: in vitro
Concentration: not given
Notes: 8-mer, flanks averaged, mean of 2 arrays, mostly near background
Baseline: not given
Reading: higher = stronger binding
Residues (chain): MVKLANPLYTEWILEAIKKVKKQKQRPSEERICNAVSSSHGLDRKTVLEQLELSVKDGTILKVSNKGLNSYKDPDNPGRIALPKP
With `AGCCCGGA` the E-score was 0.0879.
`AGTCAAAG` has an E-score of -0.058.
`GGTGCAGA` gave an E-score of -0.131.
With `CCTGTGCG` the E-score was 0.055.
The E-score of `TGCGGGAA` is reported as 0.324.
The E-score of `TCTGACCA` is reported as -0.103.
`GAGATAGC` has an E-score of -0.0938.
`AGACTAAG` has an E-score of -0.154.
For `ATTATGAC`, the E-score was -0.0619.
For `GTCTCAAC`, the E-score was -0.11.
With `CACAGCTA` the E-score was -0.243.
`CCACGAAC` gave an E-score of -0.0816.
The E-score of `ATGTGAAG` is reported as -0.212.
`CACGCAAA` has an E-score of 0.0774.
The E-score of `TCCTAAAA` is reported as -0.131.
`GAAGTCGC` has an E-score of 0.152.
For `CCGACCAA`, the E-score was -0.0391.
The E-score of `GTAATTAC` is reported as 0.13.
For `GAGGCAAC`, the E-score was -0.0752.
`AAAGGGGG` has an E-score of -0.151.
`ACGGCTAC` gave an E-score of 0.381.
For `TCGCGACA`, the E-score was 0.124.
For `GACAGCCC`, the E-score was 0.14.
For `AAAAGTCT`, the E-score was -0.218.
For `CTAGGTTA`, the E-score was -0.092.

Set 2
Target: Sal-like protein 4, full length isoform A (SALL4, Homo sapiens, UniProt Q9UJQ4, residues 1-1053)
UniProt Q9UJQ4, sequence (whole entry, looked up): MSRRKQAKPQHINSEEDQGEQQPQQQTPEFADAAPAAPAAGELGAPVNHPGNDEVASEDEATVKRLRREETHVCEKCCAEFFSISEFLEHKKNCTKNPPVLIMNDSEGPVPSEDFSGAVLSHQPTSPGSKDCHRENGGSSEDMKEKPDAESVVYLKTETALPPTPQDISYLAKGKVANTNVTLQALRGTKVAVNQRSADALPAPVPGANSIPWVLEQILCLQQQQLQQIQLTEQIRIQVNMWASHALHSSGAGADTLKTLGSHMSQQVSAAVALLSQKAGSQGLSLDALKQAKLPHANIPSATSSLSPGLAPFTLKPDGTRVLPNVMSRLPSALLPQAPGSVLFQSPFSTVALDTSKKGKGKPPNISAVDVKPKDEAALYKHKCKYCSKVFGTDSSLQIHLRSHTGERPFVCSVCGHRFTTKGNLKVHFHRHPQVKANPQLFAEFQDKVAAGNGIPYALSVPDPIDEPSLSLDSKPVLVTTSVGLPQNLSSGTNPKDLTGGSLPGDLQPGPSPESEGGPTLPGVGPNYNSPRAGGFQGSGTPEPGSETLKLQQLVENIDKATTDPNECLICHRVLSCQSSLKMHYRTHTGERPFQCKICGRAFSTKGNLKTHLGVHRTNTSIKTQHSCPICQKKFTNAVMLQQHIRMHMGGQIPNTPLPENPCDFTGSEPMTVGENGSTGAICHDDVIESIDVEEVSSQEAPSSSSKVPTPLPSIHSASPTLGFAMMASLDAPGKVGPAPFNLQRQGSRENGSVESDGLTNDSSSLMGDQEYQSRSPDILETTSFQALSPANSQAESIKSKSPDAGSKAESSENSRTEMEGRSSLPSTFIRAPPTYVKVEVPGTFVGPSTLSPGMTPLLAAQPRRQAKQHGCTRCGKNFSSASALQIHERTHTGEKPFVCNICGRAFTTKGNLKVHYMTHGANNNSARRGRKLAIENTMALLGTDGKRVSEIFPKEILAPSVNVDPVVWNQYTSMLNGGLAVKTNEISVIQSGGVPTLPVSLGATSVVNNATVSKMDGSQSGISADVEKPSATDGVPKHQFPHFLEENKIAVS
Method: universal PBM
Molecule type: double-stranded DNA, one strand shown
Medium: in vitro
Concentration: 600 nM
Notes: 8-mer, flanks averaged, mean of replicates
Reading: higher = stronger binding
`CGACCCAC` has an E-score of -0.19.
`AACATGGT` gave an E-score of -0.06.
`AAGGTCTG` has an E-score of -0.035.
For `CACCTCCC`, the E-score was -0.324.
`ACCCTTTC` has an E-score of 0.0602.
For `ACGATCGG`, the E-score was -0.029.
`AACTCAAC` gave an E-score of 0.037.
The E-score of `AGAGTCGC` is reported as -0.245.
The E-score of `AGGCTCCG` is reported as -0.232.
The E-score of `CAAAAACC` is reported as 0.0505.
With `GCACTGAC` the E-score was -0.109.
The E-score of `ATAGGGAA` is reported as -0.0643.
`AGTACTGG` gave an E-score of -0.17.
`CATCGCTA` has an E-score of 0.00949.
For `AACAGGTC`, the E-score was -0.0519.
The E-score of `AAGATAAT` is reported as 0.28.
`CAATGTGC` gave an E-score of 0.0773.
`CGGCATCA` has an E-score of -0.0931.
For `CCATTTGC`, the E-score was 0.0697.
With `GCCGTGAA` the E-score was -0.105.
`CCACTGTC` gave an E-score of -0.249.
With `CCAAACGC` the E-score was -0.183.
`GCGGCGAA` gave an E-score of -0.226.
For `CCGCGGAC`, the E-score was -0.4.
With `ATTAACTC` the E-score was 0.232.

Set 3
Target: Ras GTPase-activating protein-binding protein 1, C-terminal RGG region (G3BP1, Homo sapiens, UniProt Q13283)
UniProt Q13283, sequence (whole entry, looked up): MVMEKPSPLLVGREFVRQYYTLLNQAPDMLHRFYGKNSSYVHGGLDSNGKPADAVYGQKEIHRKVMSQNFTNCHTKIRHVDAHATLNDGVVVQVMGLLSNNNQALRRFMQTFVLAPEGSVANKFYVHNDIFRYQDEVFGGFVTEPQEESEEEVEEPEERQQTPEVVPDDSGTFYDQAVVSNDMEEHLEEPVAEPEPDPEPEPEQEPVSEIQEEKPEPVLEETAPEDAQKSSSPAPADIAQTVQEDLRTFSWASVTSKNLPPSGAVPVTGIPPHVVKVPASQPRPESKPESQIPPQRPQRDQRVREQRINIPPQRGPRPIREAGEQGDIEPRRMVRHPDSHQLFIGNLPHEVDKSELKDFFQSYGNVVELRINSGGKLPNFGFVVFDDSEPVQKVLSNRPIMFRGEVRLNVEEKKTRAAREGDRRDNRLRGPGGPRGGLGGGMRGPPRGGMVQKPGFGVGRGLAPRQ
Method: RNA Bind-n-Seq
Molecule type: RNA
Medium: in vitro
Concentration: 1 µM
Notes: whole 134-nt RNA, ends assumed
Added: 150 mM KCl
Baseline: input library
Reading: higher = stronger binding
All sequences stand within: GGGAGUUCUACAGUCCGACGAUC … UGGAAUUCUCGGGUGUCAAGG
For `UCCUCAAGUCCUGUGCUACACAUCGUAUGUACCGAAUCGGGGAGGGAGGAGGAAAGUAUUAUGUUACGCCGUUCGGAUCUGCACUUCCAG`, the log2 enrichment was -0.485.
The log2 enrichment of `ACCAUGCAGGUGGGCAUCUUUGGGAAGUGGGGCAAGGGGGUGAUAGGGAGGGGGGUAACACUUUGGGAACAGGUGGUCCCAGGUCGUUUC` is reported as 2.15.
`UCCUGUGCUACACAUCGUAUGUACCGAAUCGGCCCCCCCGGCCCCCCCGGCCCCCCCGGAAAGUAUUAUGUUACGCCGUUCGGAUCUGCA` gave a log2 enrichment of -1.51.
The log2 enrichment of `GUCCUGUGCUACACAUCGUAUGUACCGAAUCGGGGAGGGGAAAAAGGGGUUUUUGGGGAAAGUAUUAUGUUACGCCGUUCGGAUCUGCAC` is reported as 1.94.
`GCAGGAAGUAAAAACAAAUGGAAAUGCUUCGGAUAGUGGCAGGGGUGGGGGUUGCUAAGGAAAGGGUGGGAUAGGAGUGGGUAAAGAGUU` has a log2 enrichment of 1.86.
`ACCAUGCAGGUGGGCAUCUUUGGGAAGUGGGGCAAGGGGGGGAUAGGGAGGGGGGUAACACAAAGGGAACAGGUGGUCCCAGGUCGUUUC` has a log2 enrichment of -1.18.
The log2 enrichment of `UAACUUUAGAGGACGAUCUGAUGGAUAUGGCAGUGGACGUGGAUUUGGGGAUGGCUAUAAUGGGUAUGGAGGAGGACCUGGAGGUGGCAA` is reported as 0.318.
`AGUCCUGUGCUACACAUCGUAUGUACCGAAUCGGGUUUGGGUUUUUUUGGGAAAGGGAAAGUAUUAUGUUACGCCGUUCGGAUCUGCACU` gave a log2 enrichment of 0.652.
With `CCUGUGCUACACAUCGUAUGUACCGAAUCGGGGUUUUUUUGGGGAAAAAGGGGUUUGGGGAAAGUAUUAUGUUACGCCGUUCGGAUCUGC` the log2 enrichment was 0.427.
For `GCAGGAAGUAAAAACAAAUGGAAAUGCUUCGGAUAGUGGCAGGGGUGGGGGUUGCUAAGGAAAGGGUGGGAUGGGAGUGAGUAAAGAGUU`, the log2 enrichment was 1.55.

Set 4
Target: Interferon regulatory factor 3, full length, phosphomimetic (IRF3, Homo sapiens, UniProt Q14653, residues 1-427, S386D/S396D/S398D/S402D/T404D/S405D)
UniProt Q14653, sequence (whole entry, unmodified, looked up): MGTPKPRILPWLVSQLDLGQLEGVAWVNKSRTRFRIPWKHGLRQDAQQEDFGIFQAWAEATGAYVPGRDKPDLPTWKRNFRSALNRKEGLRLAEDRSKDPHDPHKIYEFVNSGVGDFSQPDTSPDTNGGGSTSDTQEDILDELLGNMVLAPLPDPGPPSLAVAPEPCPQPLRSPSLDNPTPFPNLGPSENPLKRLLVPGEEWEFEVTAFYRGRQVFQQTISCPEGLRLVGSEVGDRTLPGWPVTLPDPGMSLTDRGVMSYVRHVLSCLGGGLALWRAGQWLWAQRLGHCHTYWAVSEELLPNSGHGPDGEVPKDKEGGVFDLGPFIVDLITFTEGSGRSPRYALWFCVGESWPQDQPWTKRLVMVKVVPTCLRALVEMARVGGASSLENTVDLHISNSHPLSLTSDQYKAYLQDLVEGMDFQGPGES
Method: protein-binding microarray
Molecule type: double-stranded DNA, one strand shown
Medium: in vitro
Concentration: 2540 nM top
Notes: 60-bp whole probe
Added: salmon DNA 0.4 mg/ml
Baseline: random background probes
Reading: higher = stronger binding
All sequences stand within: GCCTAGCAC … GTCTTGATTCGCTTGACGCTGCTG
`GATGATCTCAGTATCGAGACGTGCTAG` — result for “fitted relative affinity”: 0.417 z-score.
Under “fitted relative affinity”, `TCATTTTTCTCACCACATACTGTGCTA` is recorded as 1.89 z-score.
For `TCAGTTTCCTTCCTCTTACTGTGCTAG`, “fitted relative affinity” read 8.78 z-score.
Under “fitted relative affinity”, `TTAGGTATCGGGAATGGGTTAGTGCTA` is recorded as 0.494 z-score.
`TCATTTTTTTTTTTTACACTGTGCTAG` — result for “fitted relative affinity”: 1.38 z-score.
`TTAGGACTGCTTATCCTATAGTGCTAG` — result for “fitted relative affinity”: -0.0411 z-score.
`CAGGTTCTCTTTTATTTTTTGTGCTAG`: “fitted relative affinity” 2.78 z-score.
Under “fitted relative affinity”, `TTGCTGAAATAATACTGTTAGTGCTAG` is recorded as 0.631 z-score.
`TTAGAACTGGGGTTTCGATTCGTGCTA`: “fitted relative affinity” 2.62 z-score.
For `GACAGTTTCGGGTATCGGGACGTGCTA`, “fitted relative affinity” read 4.65 z-score.
For `TTAGGTTTCCTTCTCCTTTTGTGCTAG`, “fitted relative affinity” read 10.5 z-score.
`GACGGTTTCGGGAGTGGGGACGTGCTA` — result for “fitted relative affinity”: 3.4 z-score.
`GACGATCTAAGTTTCGAGACGTGCTAG`: “fitted relative affinity” 1.82 z-score.
`GACGGTTTCCTTCTACTGACGTGCTAG`: “fitted relative affinity” 7.89 z-score.
`GACGGTCTCAGACTGGAGACGTGCTAG`: “fitted relative affinity” 0.241 z-score.
`GTAGTAATGAATATAATACCGTGCTAG` — result for “fitted relative affinity”: 0.0696 z-score.
For `GCCACCGGTCTCCATGGGTCGTGCTAG`, “fitted relative affinity” read 0.328 z-score.
For `GTAGGTTTCCTTTTCCTTTAGTGCTAG`, “fitted relative affinity” read 11.6 z-score.
`AAACGGGCTTCTTTTTCTCAGGTGCTA` — result for “fitted relative affinity”: 0.615 z-score.
Under “fitted relative affinity”, `GACGGTATCGGGTTCGGGACGTGCTAG` is recorded as 2.41 z-score.
Under “fitted relative affinity”, `TGGGTCTTGGTTCTCAGCTTGTGCTAG` is recorded as -0.687 z-score.
`ATGCATGTAAATAATCAGACAGTGCTA`: “fitted relative affinity” -0.253 z-score.
Under “fitted relative affinity”, `GCCGAACTGAGTCTCGAGACGTGCTAG` is recorded as 0.967 z-score.
Under “fitted relative affinity”, `GAAGGTTTCGACTATCGGGACGTGCTA` is recorded as 2.33 z-score.
For `TCATATTCATATATATAACTGTGCTAG`, “fitted relative affinity” read 1.45 z-score.

Repeated from above (set 1):
For `GAGGCAAC`, the E-score was -0.0752.
`AAAGGGGG` has an E-score of -0.151.
`ACGGCTAC` gave an E-score of 0.381.
For `TCGCGACA`, the E-score was 0.124.
For `GACAGCCC`, the E-score was 0.14.
For `AAAAGTCT`, the E-score was -0.218.
For `CTAGGTTA`, the E-score was -0.092.
